Published values from different studies.
Parts stem from different laboratories: compare values within a part only. Substitutions count along the parent as printed.

Set 1 — target: CCNA1, cyclin fold, Cln2 fusion (human); method: yeast growth competition, sequencing; medium: yeast; setting: strong parent motif; relative to: not given; reading: higher = stronger binding
Parent: E2F1 docking peptide (human); PPVKRRLDFETDH
Change | normalised enrichment score
PPVKNRLDFETDH [R5N] | 0.608
PPVKRRLDFEMDH [T11M] | 1.89
PPVKRRLDFETMH [D12M] | 2.07
PQVKRRLDFETDH [P2Q] | 2.13
PPVKRRLDFETAH [D12A] | 1.97
PPEKRRLDFETDH [V3E] | 0.237
PPVKRRIDFETDH [L7I] | 0.938
PPVKGRLDFETDH [R5G] | 0.207
PDVKRRLDFETDH [P2D] | 1.42
PPVKRRLNFETDH [D8N] | 1.84
PPVKRRLDFYTDH [E10Y] | 1.48
PPVKRRLDFETNH [D12N] | 1.88
PPVKRRLDFETRH [D12R] | 1.78

Set 2 — method: Sort-seq; measured: YFP reporter; medium: E. coli; setting: PhoQ-PhoP variant library; with: 10 µM Mg2+; relative to: high Mg2+ state; reading: higher = stronger signaling
Substance: PhoQ, residues 284 288 289 292 302 303 GLASVI
target | fold induction
PhoP, residues 12 14 15 18 19 LHHYF (Escherichia coli, UniProt P23836) | 15.2
PhoP, residues 12 14 15 18 19 TPWTL (Escherichia coli, UniProt P23836) | 1.15
PhoP, residues 12 14 15 18 19 NFFVT (Escherichia coli, UniProt P23836) | 8.44
PhoP, residues 12 14 15 18 19 VGHWL (Escherichia coli, UniProt P23836) | 1.47

Set 3 — method: protein binding microarray; molecule type: double-stranded DNA, one strand shown; medium: in vitro; tested at: not given; relative to: not given; reading: higher = stronger binding
Target: Histone acetyltransferase KAT6A, both winged helices, GST fusion (KAT6A, Homo sapiens, UniProt Q92794, residues 1-181)
Setting: 8-mer, flanks averaged, mean of 2 arrays, mostly near background
Residues (chain): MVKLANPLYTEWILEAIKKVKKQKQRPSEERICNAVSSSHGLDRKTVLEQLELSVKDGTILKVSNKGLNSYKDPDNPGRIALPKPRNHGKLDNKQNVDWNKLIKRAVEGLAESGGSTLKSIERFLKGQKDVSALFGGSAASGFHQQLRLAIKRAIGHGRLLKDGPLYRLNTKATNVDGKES
Sequence | E-score
AAATCATC | -0.202
AATGAAAC | -0.156
TAGTATCA | 0.0638
GGATGAAA | -0.0499
ATTGTAGC | -0.0326
ACAATACA | -0.00382
GGTGCACC | -0.0783
CATATTGG | -0.202
CTGATATA | -0.104
GAATCTTA | -0.0721
GTACACTA | -0.0352
CCTAATGC | -0.0715
AAAAAAGG | -0.0766
TAAGAGTA | -0.225
AATCAGGT | -0.0756
AGCGAACA | 0.0626
ACTATACC | -0.136
CATAGTGG | -0.14
GAGAGAGC | -0.0248
GCCCGTGA | 0.2
TTCCAGAA | -0.118
GTGAATAA | -0.0959
GCATCGAA | 0.00234
GGGACTCA | -0.0114
TCCGCGCA | 0.359

Set 4 — target: ATF2, bZIP domain (human); method: DHFR protein complementation; medium: yeast; relative to: wild-type JUN-FOS pair; reading: higher = stronger binding
Setting: single substitutions, most at no-binding floor
Parent: JUN, bZIP domain (human); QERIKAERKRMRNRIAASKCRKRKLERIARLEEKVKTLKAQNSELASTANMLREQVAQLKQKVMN; partner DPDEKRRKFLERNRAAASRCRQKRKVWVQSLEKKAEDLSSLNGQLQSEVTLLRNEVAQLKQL
Change | binding fitness [natural log]
A46D | -1.47
K39P | -1.49
L31P | -1.48
E54H | -1.33
M51G | -1.42
S43W | -1.47
A29N | -1.34
Q41S | -1.52
K39V | -1.46

For quick reference, copied from above (set 3):
Sequence | E-score
AATCAGGT | -0.0756
ACAATACA | -0.00382
CCTAATGC | -0.0715
GCCCGTGA | 0.2
GTACACTA | -0.0352
GCATCGAA | 0.00234
GAGAGAGC | -0.0248
GGATGAAA | -0.0499
